Experimental data pooled from the literature.
Lines come from different studies, so protocols differ. Numbers after ± are the reported error.
Organism: Plasmodium falciparum

Cc1nnc(-c2ccc3ccn(CC(=O)Nc4ccccc4Cl)c3c2)o1  fold lysis (luminescence; red blood cells, 3D7 Hyp1-Nluc; 10 × EC50, 8 h; reference: DMSO): 2 fold
O=C(NCc1nc(-c2ccccc2)cs1)[C@H]1CCCN(C(=O)COCC(F)F)C1  EC50 (SYBR Green growth; asexual blood-stage parasites, 3D7; 72 h): 32 ± 4.4 nM
CC1=C(C)/C(=C/c2[nH]c(Cc3ccc(Cl)cc3)cc2Cc2ccc(Cl)cc2)N=C1c1ccc[nH]1  IC50 (parasite growth, SYBR Green fluorescence; Tm90-C2B (atovaquone-resistant), asexual blood stage; 72 h): > 2500 nM
CC/N=C(\c1ccc(OC)c(OC)c1)N1CCCc2cc(C3=NNC(=O)SC3C)ccc21 (stereo not drawn)  parasite growth (LDH readout; 3D7 Hyp1-Nluc; 20 µM, 72 h; reference: DMSO): -4.04%
CC1=C(C)/C(=C/c2cc(Cc3ccc(Cl)cc3)c(C)[nH]2)N=C1c1ccc[nH]1  IC50 (parasite growth, SYBR Green fluorescence; Dd2 (multidrug-resistant), asexual blood stage; 72 h): 1260 nM
CC(C)OCC(=O)N1CCC[C@H](C(=O)NCc2nc(-c3ccccc3)cs2)C1  EC50 (SYBR Green growth; asexual blood-stage parasites, 3D7; 72 h): 170 ± 15 nM
CC1=C(C)/C(=C/c2[nH]c(Cc3ccc(OC(F)(F)F)cc3)cc2Cc2ccc(OC(F)(F)F)cc2)N=C1c1ccc[nH]1  IC50 (parasite growth, SYBR Green fluorescence; Tm90-C2B (atovaquone-resistant), asexual blood stage; 72 h): 2370 nM
CCN(CC)CCCC(C)Nc1ccnc2cc(Cl)ccc12 (stereo not drawn)  IC50 ratio (growth; 3D7; 96 h, added: 200 µM IPP; reference: with IPP over without IPP): 1
COc1cc(OC)c(CCNC(=O)c2cn3cc(-c4cc(OCC(=O)O)ccc4OC)nc3s2)c(OC)c1  inhibition (schizont egress, Nluc release; Hyp1-Nluc; 10 x growth EC50, 4 h): -41.5%
Oc1cccc(C(Nc2nccs2)c2ccc3cccnc3c2O)c1 (stereo not drawn)  inhibition (erythrocyte invasion; 9.02 µM): 50%
CCc1nnc(-c2ccc3ccn(CC(=O)Nc4cc(OC)c(OC)c(OC)c4)c3c2)o1  time to undetectable parasitaemia (3D7 ring stage; 10 × EC50): 72 h
O=C1C(O)=C([C@H]2CC[C@H](c3ccc(Cl)cc3)CC2)C(=O)c2ccccc21  parasite clearance time (parasite reduction ratio; 3D7 ring stage; 10-fold IC50): 120 h
CC1=C(Cn2cc(CBr)nn2)C(=O)c2ccccc2C1=O  selectivity index (NF54; reference: L6 CC50 over IC50): 3.3
COc1cc(C(=O)N(C)C)ccc1-c1cc2nccc(-c3ccc4ccncc4c3)c2o1  parasite growth (LDH readout; 3D7 Hyp1-Nluc; 2 µM, 72 h; reference: DMSO): 30.2%
Cl.N=C(CC(O)c1cc2c(F)cc(F)cc2c2cc(C(F)(F)F)ccc12)Nc1ccc(Br)cc1 (stereo not drawn)  parasite clearance time (parasite reduction ratio; 3D7 ring stage; 10-fold IC50): ≤ 72 h
COc1ccc(CNc2nc(-c3ccc(C(=O)O)nc3)nc3sc4c(c23)CCCC4)cc1Cl  inhibition (schizont egress, Nluc release; Hyp1-Nluc; 10 x growth EC50, 4 h): 100%
COC(=O)N1CCC[C@H](C(=O)NCc2nc(-c3ccccc3)cs2)C1  EC50 (SYBR Green growth; asexual blood-stage parasites, 3D7; 72 h): > 5000 nM
COC1=CC(c2ccc[nH]2)=N/C1=C\c1[nH]c(Cc2ccc(OC(F)(F)F)cc2)cc1Cc1ccc(OC(F)(F)F)cc1  IC50 (parasite growth, SYBR Green fluorescence; Dd2 (multidrug-resistant), asexual blood stage; 72 h): 24.1 nM
Cn1nc2c(=O)n(C3CC3)ncc2c1[C@](N)(c1ccc(C(F)(F)F)c(Cl)c1)C1CC1  killing curve slope (parasite reduction ratio; 3D7; concentration not given, linear phase after lag): -0.064
CCOC1=CC(c2ccc[nH]2)=N/C1=C\c1cc(Cc2ccc(OC(F)(F)F)cc2)c(C)[nH]1  IC50 (parasite growth, SYBR Green fluorescence; Dd2 (multidrug-resistant), asexual blood stage; 72 h): 5.88 nM
CCN(CC)CCCC(C)Nc1ccnc2cc(Cl)ccc12 (stereo not drawn)  MIC90 (SYBR Green I fluorescence; Dd2): > 0.2 µM
N[C@H](COCC(=O)N1CCC[C@H](C(=O)NCc2nc(-c3ccc(C(F)(F)F)cc3)cs2)C1)c1ccccc1  EC50 (SYBR Green growth; asexual blood-stage parasites, 3D7; 72 h): 11 ± 7.4 nM
CCc1nc(N)nc(N)c1-c1ccc(Cl)cc1  lag phase (parasite reduction ratio washout; 3D7; 10 x EC50): 24 h
CC1=C(Cc2cn(CCO)nn2)C(=O)c2ccccc2C1=O  selectivity index (NF54; reference: L6 CC50 over IC50): 9.5
CNS(=O)(=O)c1ccccc1Nc1nc(Nc2cc(OC)c(OC)cc2C)ncc1Br  parasite growth (nanoluciferase readout; 3D7 Hyp1-Nluc; 2 µM, 72 h; reference: DMSO): 2.37%
COCC(=O)N1CCC[C@H](C(=O)NCc2nc(C3CCN(C)CC3)cs2)C1  EC50 (SYBR Green growth; asexual blood-stage parasites, 3D7; 72 h): > 5000 nM
O=C(CCCCCONC(=O)c1nc(-c2ccccc2[N+](=O)[O-])cs1)NO  selectivity ratio (3D7; reference: NFF cells over P. falciparum): 6
CC1=C(Cn2cc([Si](C)(C)C)nn2)C(=O)c2ccccc2C1=O  selectivity index (NF54; reference: L6 CC50 over IC50): 2.5
CCN(CC)CCCC(C)Nc1ccnc2cc(Cl)ccc12 (stereo not drawn)  extracellular parasites (Giemsa-stained smears; red blood cells, 3D7 Hyp1-Nluc; 10 × EC50, 8 h): 3.5%
Cn1nc2c(=O)n(C3CC3)cnc2c1[C@](O)(c1cnc(C(F)(F)F)c(Cl)c1)C(F)(F)F  killing curve slope (parasite reduction ratio; 3D7; concentration not given, linear phase after lag): -0.061
Cc1[nH]c(/C=C2\N=C(c3ccc[nH]3)C=C2OCc2ccccc2)cc1Cc1ccc(OC(F)(F)F)cc1  IC50 (parasite growth, SYBR Green fluorescence; Tm90-C2B (atovaquone-resistant), asexual blood stage; 72 h): 11.3 nM
O=C(CC1NCCCC1O)Cn1cnc2cc(Br)c(Cl)cc2c1=O (stereo not drawn)  IC50 (parasite growth; conditional knockdown control line; 72 h, added: 12.5 nM anhydrotetracycline): 0.5 nM
Cn1cc(-c2cnc3[nH]cc(-c4cn(Cc5cccc(F)c5F)nn4)c3c2)cn1  parasite growth (LDH readout; 3D7 Hyp1-Nluc; 20 µM, 72 h; reference: DMSO): 7.38%
COc1nc2ccc(Br)cc2cc1[C@@H](c1ccccc1)[C@@](O)(CCN(C)C)c1cccc2ccccc12  inhibition (erythrocyte invasion; 4.64 µM): 100%
COC1=CC(c2ccc[nH]2)=N/C1=C\c1[nH]c(C(=O)O)cc1Cc1ccc(Cl)cc1  IC50 (parasite growth, SYBR Green fluorescence; Dd2 (multidrug-resistant), asexual blood stage; 72 h): > 2500 nM
NC(N)=Nc1ccc(-c2ccc(-c3ccc(N=C(N)N)c(Cl)c3)o2)cc1Cl  inhibition (erythrocyte invasion; 3.94 µM): 100%
COCC(=O)N1CCC[C@H](C(=O)NCc2nc(-c3ccc(-c4ccccc4)cc3)cs2)C1  EC50 (SYBR Green growth; asexual blood-stage parasites, 3D7; 72 h): 11 ± 2.1 nM
COc1cc2c(cc1O)c(=O)n1ccc3cccc2c31  activity class (parasite growth; concentration not given): inactive
COCC(=O)N1CCC[C@H](C(=O)NCCc2nc(-c3ccccc3)cs2)C1  EC50 (SYBR Green growth; asexual blood-stage parasites, 3D7; 72 h): 3500 ± 840 nM
CNS(=O)(=O)c1ccccc1Nc1nc(Nc2ccc(N3CCOCC3)cc2OC)ncc1Br  parasite growth (nanoluciferase readout; 3D7 Hyp1-Nluc; 2 µM, 72 h; reference: DMSO): 2.1%
NCCCOCC(=O)N1CCC[C@H](C(=O)NCc2nc(-c3ccc(C4CC4)cc3)cs2)C1  EC50 (SYBR Green growth; asexual blood-stage parasites, 3D7; 72 h): 14 ± 4.8 nM
COC1=CC(c2ccc[nH]2)=N/C1=C\c1[nH]c(C(=O)O)cc1Cc1ccc(OC(F)(F)F)cc1  IC50 (parasite growth, SYBR Green fluorescence; Tm90-C2B (atovaquone-resistant), asexual blood stage; 72 h): > 2500 nM

Excerpt of the above:
CCOC1=CC(c2ccc[nH]2)=N/C1=C\c1cc(Cc2ccc(OC(F)(F)F)cc2)c(C)[nH]1  IC50 (parasite growth, SYBR Green fluorescence; Dd2 (multidrug-resistant), asexual blood stage; 72 h): 5.88 nM
Cn1nc2c(=O)n(C3CC3)cnc2c1[C@](O)(c1cnc(C(F)(F)F)c(Cl)c1)C(F)(F)F  killing curve slope (parasite reduction ratio; 3D7; concentration not given, linear phase after lag): -0.061
O=C(CC1NCCCC1O)Cn1cnc2cc(Br)c(Cl)cc2c1=O (stereo not drawn)  IC50 (parasite growth; conditional knockdown control line; 72 h, added: 12.5 nM anhydrotetracycline): 0.5 nM
CC1=C(Cc2cn(CCO)nn2)C(=O)c2ccccc2C1=O  selectivity index (NF54; reference: L6 CC50 over IC50): 9.5
